Measurements from different studies.
Each numbered part is a random draw from the data of one study; scales do not carry over between parts. Changes are numbered by the printed parent chain.

Sample 1
Target: RING finger protein unkempt homolog, zinc fingers 1-6, GST-SBP tag (UNK, Homo sapiens, UniProt Q9C0B0, residues 30-357)
Method: RNA Bind-n-Seq
Form: RNA
Medium: in vitro
Concentration: not given
Setting: RNA with constant flanks, human and mouse sites, ends assumed
Baseline: input RNA pool
Direction: higher = stronger binding
Shared flanks, not repeated: GGGAGUUCUACAGUCCGACGAUC … CAACAGAGGAUUGAGCAUCA
Target sequence (chain): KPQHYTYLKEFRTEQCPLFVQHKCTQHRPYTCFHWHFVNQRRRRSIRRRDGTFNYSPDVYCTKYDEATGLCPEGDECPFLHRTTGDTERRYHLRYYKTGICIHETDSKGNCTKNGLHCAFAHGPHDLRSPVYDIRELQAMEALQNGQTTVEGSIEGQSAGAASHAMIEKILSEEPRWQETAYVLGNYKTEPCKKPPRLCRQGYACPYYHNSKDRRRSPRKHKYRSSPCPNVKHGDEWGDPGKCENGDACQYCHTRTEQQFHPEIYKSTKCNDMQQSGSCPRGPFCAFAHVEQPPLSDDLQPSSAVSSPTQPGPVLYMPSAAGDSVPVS
Oligonucleotide | bound/input enrichment [ratio]
UGUUUGGAAGGAAUGAUUCUUGCAGCAAAAUCAGUUGAUGAAAGAAGAGACUCUCAAAUGGUGGUAGACUCCUUCAAAUCUGGUUUUGAACCUCCAGGAGACUUUCCAUUUGAAGAUUAC | 0.0703
UUUAAAACAGGUCUAAAGGCUUUGAUGACAGUAGGGAAAGAACCAUUUCCUACCAUUUACGUAGAUUCACAAAAAGAAAAUGAGAGGUGGAAUGUUAUUUCUAAAUCACAGUUGAAGAAC | 0.195
GUCCAGUUAAACAAGAAGUGUUCAGCUGUAAAACAUAAUAGAAUCAAGGGAAUUCCCAAACUCGAUGAUGCCAAUGAUGCAGGGGGCCGAAACUCCACUGAGUGUACGCUUAUCCUGACU | 0.196
CCCAUAUUACAUGGACUAUGUACCUUUGGAUUUUCUGCAAGGCAUGUUUUACAGCAGUUUGCAGAUAAUGAUGUAUCAAGAUUCAAGGCGAUUAAGGUUCGUUUUGCCAAACCAGUGUAU | 0.114
CUGAGCUAAAGGAGUUAGCAUCUUUAUUUUUGUAUCAAAAAUAAAGGUUAUUUUGAAAUUAUUAGGAUUUUUACACAAUUCUGAAAUCUGUUGCUUUUGUAAACAAAUUGUUUGAUCUUA | 35.6
GUAGUUUGUUGUUUAAAAUAAUGUAAUCAUCAAAAUGAUACACAUGUUACACUACUAUUAACUAGGCUUCAAUAUAUCAGUGUUUAUUUCAUUGUGUUAAAUGUAUACUUGUAAAUAAAA | 1.01
GGCUCAUUUGUAAAAUUGUCCUAAUUUUUCCUAGCUUUCAGCCAUUAGAAACUCUUUUAAUAGUUCCUUUUGAGUUGUGAGCUCUUCUUCUGUAGCCCUGAAGGGACACUGUAUUCUGUA | 2.61
GUAAUCUUCCAAAGGAAGCUCUUUCAGGCCUUGAGGAAGCAUCCUGCUUAUCCCAAAGUAAUAGAAGAGUUUGUUAAUGGCCUGGAGUCCUACACUGAGGACAGUGAGAGUCUCAGGAAC | 0.176

Sample 2
Target: Max-binding protein MNT, bHLH-zipper, MAX partner unstated (MNT, Homo sapiens, UniProt Q99583, residues 220-300)
Method: protein-binding microarray
Form: double-stranded DNA, one strand shown
Medium: in vitro
Concentration: not given
Setting: k-mer, scored over probes, only values ≥0.25
Direction: higher = stronger binding
Construct (chain): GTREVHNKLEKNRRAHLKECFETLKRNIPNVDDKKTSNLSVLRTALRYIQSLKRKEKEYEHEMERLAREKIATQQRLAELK
Oligonucleotide | E-score
CACGGTGG | 0.271
CACGCACG | 0.404
AGGCGCAC | 0.287
ATCACGTC | 0.255
TAACGTGA | 0.296
ATGAGGGG | 0.253
GTGTAGCA | 0.27
CCCCTCGC | 0.252
GCTCCACA | 0.267
ACGTGCGC | 0.468
AGTCGTGC | 0.263
TCGTGACA | 0.254
CCACGCTA | 0.354
GCGTGCTA | 0.427
ATGAGGGA | 0.268
AATGCATG | 0.324
CGTGTCCA | 0.319
AATCACAT | 0.302
AAGCCACG | 0.322

Sample 3
Target: CRIPT, C-terminal peptide
Method: DHFR complementation, deep sequencing
Medium: yeast
Setting: single substitutions, model-inferred values
Baseline: wild type
Direction: higher = weaker binding
Parent: ERBIN, PDZ domain 1 (human); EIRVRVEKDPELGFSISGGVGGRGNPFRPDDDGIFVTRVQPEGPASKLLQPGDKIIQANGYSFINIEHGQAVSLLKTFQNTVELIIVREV; partner TKNYKQTSV
Substitution | binding free energy change [kcal/mol]
S62K | 0.0762
G69Y | 0.0606
E42M | 0.145
I66N | 0.707
V82W | 0.832
E67L | 0.328
A71P | 0.887
P44H | 0.514
T81S | 0.0297
I55T | 0.692
L74I | 0.0466
T77N | -0.0612
F14W | 1.22
R3A | -0.142
V39P | 0.433
L48R | 0.104
F78M | 0.0625
L12W | 1.21
K76W | 0.42
A45N | 0.323
D32N | 0.237
Y61L | 0.0319
L74G | 0.623
F27T | 1.2
L48C | 0.163

Sample 4
Target: RNA binding protein fox-1 homolog 2, RRM domain, GST-SBP tag (RBFOX2, Homo sapiens, UniProt O43251-10, residues 100-194)
Method: RNA Bind-n-Seq
Form: RNA
Medium: in vitro
Concentration: 365 nM
Setting: natural RNA segment, single round, ends assumed
Baseline: no-protein control
Direction: higher = stronger binding
Shared flanks, not repeated: GGGAGUUCUACAGUCCGACGAUC … UGGAAUUCUCGGGUGCCAA
Construct (chain): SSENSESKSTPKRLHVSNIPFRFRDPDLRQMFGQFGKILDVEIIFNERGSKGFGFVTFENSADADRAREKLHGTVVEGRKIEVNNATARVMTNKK
Oligonucleotide | RBNS enrichment (R)
GGAGCAGGGCAGCUCUACCAGGCAAGGUGUUUCCCCAGCAUAGGCGCAGACAGUUGGGACGAAACUUCAGAGCCCAGGCAGUCCCUGAAUGACCAGGCCAGUGUUGUCAC | 0.457
AAGCUCCUUGGCCUCUGAGGACCCCUAAUAACCCAGAAUCUUGGGGAGCCCUUUCCUUUGAGAAUACAAGCAUGUCUCUGAGGCAUCCUCAGACCUGGAGUGCUCCCCAA | 0.595
UUUUAUGUUGAGCCAAGAGAGAAUAUGUUGCACUUUAAACACGCUGUGUCCUGCUCCCUUUGAGUGUAGAUAUCUUCAAGUUGAAGCCAAUUAUAAGUGUAGCCAUUUUU | 0.525
UGCCCCGAGCCCUAGGUGGGGCCAGGAGGUGCCUUGGAGAAGCCAGCCAGAGCAGAGAGGGCUGCUGACUUCCGUGUGGAGCAGAGAGGCCUGAGGGCCUCCUAAAAGGU | 1.08
AAUAUCCUCAACAGACAAAAGAAGACAGGAAGCUUUUGGAGGCACGGGAAAAUUUUUGCUUGCUUGUGAAGCACCUGUCAGAGGACCCGCCUUCGAGCCUGCAGGAACUA | 1.15
UCUAUAACAACUUAAUGUAUUAAGUUCUGACUGUGCUUCAUAUCAUGUACCUCUCUAGUGAAGUAGAUGCGCAAACAUUCAGUGACAGCAAAUCAGUGUUAGUGACAAGC | 0.303
UUUUAGCAGCAGCUAAAAGGCCUGUAGUUUUACUCUCUCUCUCCUCUCUCUCUCUCUCUCUCUCUCUCUCCCUCUCUCCUCUCUGUCUUCAUCAUCUUUGAGAUCAUUAG | 1.27
UCUUAAAUUUAUUUAAAACUUUUUUUAAUCCAGAUGUAGACUAUAUUCUAAAAAAUAAAAAAGCAAAUGUGUCAACUAAAUUGGACAAGCGUCUGGUCCUCAUUAAUCUG | 0.67

Repeated from above (sample 3):
Substitution | binding free energy change [kcal/mol]
A71P | 0.887
P44H | 0.514
T81S | 0.0297
I55T | 0.692
L74I | 0.0466
T77N | -0.0612
F14W | 1.22
R3A | -0.142
V39P | 0.433
